Results gathered from unrelated publications.
Compare with care: the assays were run in different laboratories. Values joined by “and” are separate records of one study, mostly repeats; a detail may differ. Numbers after ± are the reported error. Converted amounts (≈) assume the structure as drawn.

C[C@]12CCC(=O)C(O)=C1CC[C@@H]1[C@@H]2CC[C@]2(C)C(=O)CC[C@@H]12 gave an activity score of 4 (human iPSC-derived cardiomyocytes; MyBP-C/MYH ratio, plate-normalised SD score; concentration not given, primary screen; direction not given).
Under “normalized viral replication”, O=c1ccn([C@@H]2O[C@](F)(CO)[C@@H](O)[C@H]2O)c(=O)[nH]1 is recorded as 1.55 and 1.7 and 1.49 (human respiratory syncytial virus; recombinant reporter virus; concentration not given, scale 0 to 100, added: adenosine 0.13 µM).
Under “HA titre reduction”, CCCCCCCCCCCCCCCC[N+](C)(C)CCCCCCCCCCCC[N+](C)(C)CCCCCCCCCCCCCCCC.[Br-].[Br-] is recorded as 5 log units (influenza A virus A/PR/8/34 (H1N1); concentration not given, co-treatment).
C=CCNCCc1c[nH]c2cccc(O)c12.C=CCNCCc1c[nH]c2cccc(O)c12.O=C(O)/C=C/C(=O)O — result for “head twitch count”: 15.3 ± 2.6 (C57BL/6J mice; subcutaneous, 0.3 mg/kg).
With CCCCC1(CCCC)CN(c2ccccc2)c2cc(SC)c(OCC(=O)N[C@@H](C(=O)NCC(=O)O)c3ccccc3)cc2S(=O)(=O)C1 the serum HDL-C was 48.9 mg/dL (measured: HDL cholesterol; human, serum; 5 mg once daily, day 14).
CCNCCc1c[nH]c2cccc(O)c12.CCNCCc1c[nH]c2cccc(O)c12.O=C(O)CCC(=O)O has a distance travelled of 2400 ± 291 cm (C57BL/6J mice; subcutaneous, 0.3 mg/kg, 30 min session).
The GI50 of COc1c(CCC[P+](c2ccccc2)(c2ccccc2)c2ccccc2)cc2c(c1OC)OCO2.[I-] is reported as -5.65 log M (HCC 2998; SRB).
For C[C@H]1O[C@@H](O[C@H]2CC[C@@]3(C)[C@@H](CC[C@]4(C)[C@@H]3C=C[C@]35OC[C@@]6(CCC(C)(C)C[C@H]63)[C@@H](O)C[C@]54C)[C@]2(C)CO)[C@H](O)[C@@H](O[C@@H]2O[C@H](CO)[C@@H](O)[C@H](O)[C@H]2O)[C@H]1O, the AST/ALT ratio was 1.72 and 2.07 and 2.12 and 1.36 and 2.82 and 2.14 (mouse, pair-fed, hepatic SIRT1 knockdown, plasma; dose not given, high dose).
CC(C)NCCc1c[nH]c2cccc(O)c12.O=C(O)/C=C/C(=O)O — result for “head twitch count”: 14.4 ± 1.7 (C57BL/6J mice; subcutaneous, 3 mg/kg).
CCCCCCCCCCCCCCCCCC[N+](C)(C)Cc1ccc(C[N+](C)(C)CCCCCCCCCCCCCCCCCC)cc1.[Br-].[Br-] gave a protection of 74.4 ± 2.1% (influenza A virus A/PR/8/34 (H1N1); concentration not given, pre-treatment).
With CC(C)C[C@@H](NC(=O)CNC(=O)[C@@H](CCCCN)NC(=O)[C@@H](CC(C)C)NC(=O)[C@@H](CCCCN)NC(=O)[C@@H](CCCNC(=N)N)NC(=O)[C@@H](CC(C)C)NC(=O)[C@@H](CC(C)C)NC(=O)[C@@H](CCCNC(=N)N)NC(=O)[C@H](N)CCCNC(=N)N)C(=O)N[C@H](CCCCN)C(=O)N[C@H](CCCCN)C(=O)N[C@H](Cc1ccc(O)cc1)C(=O)N[C@H](CC(C)C)C(=O)N[C@H](Cc1ccc(O)cc1)C(=O)N[C@H](Cc1ccccc1)C(=O)N[C@H](CCCCN)C(=O)N[C@H](CC(C)C)C(=O)N[C@H](CCC(N)=O)C(=O)N[C@H](CC(C)C)C(=O)N[C@H](CC(C)C)C(=O)N[C@H](CCCCN)C(=O)N[C@H](CCCCN)C(N)=O the BODIPY-TR-cadaverine displacement was 70.5% (Escherichia coli O111:B4 LPS; 4 µM, pH 7.4, added: LPS 25 µg/mL).
CC[C@H](C)[C@@H]1NC(=O)[C@@H]2CCCN2C(=O)[C@H](CC(C)C)NC(=O)[C@H](CC(C)C)NC(=O)CNC(=O)[C@@H](NC(=O)[C@@H](NC(=O)[C@H](CC(=O)O)NC(=O)CNC(=O)[C@@H](NC(=O)[C@H](C)NC(=O)CNC(=O)[C@H](CCCCN)NC(=O)[C@H](CC(C)C)NC(=O)[C@H](CC(C)C)NC(=O)[C@H](CCCCN)NC(=O)CNC(=O)[C@@H](NC(=O)[C@@H](N)CC(C)C)C(C)C)C(C)C)C(C)C)CSSC[C@@H](C(=O)O)NC1=O — result for “log2 fold change”: -1.07 (RNA-seq, measured: Crybg1; mouse, traumatic brain injury model, frontal cortex and hippocampus; dose not given; relative to: TBI alone).
CCCNCCc1c[nH]c2cccc(O)c12.CCCNCCc1c[nH]c2cccc(O)c12.O=C(O)/C=C/C(=O)O gave a distance travelled of 2280 ± 189 cm (C57BL/6J mice; subcutaneous, 10 mg/kg, 30 min).
With COc1ccc(-n2nc(C(C)=O)s/c2=N\N=C(/C)c2ccc(NC(C)=O)cc2)cc1 the toxicity was 77.1% (WI-38; 0.156 µM).
With CC[C@H](C)[C@H](NC(=O)[C@H](C)NC(=O)[C@H](CCCCN)NC(=O)[C@H](CC(C)C)NC(=O)[C@H](C)NC(=O)[C@@H](NC(=O)[C@H](Cc1c[nH]cn1)NC(=O)[C@H](CC(C)C)NC(=O)[C@@H](NC(=O)[C@@H](NC(=O)[C@H](CCCCN)NC(=O)[C@H](C)NC(=O)[C@H](C)NC(=O)[C@H](CO)NC(=O)[C@H](CCCCN)NC(=O)[C@H](Cc1ccccc1)NC(=O)[C@@H](NC(=O)[C@H](CCCCN)NC(=O)[C@H](CC(C)C)NC(=O)[C@H](Cc1ccccc1)NC(=O)[C@H](CO)NC(=O)[C@H](CCCCN)NC(=O)[C@H](Cc1c[nH]c2ccccc12)NC(=O)[C@H](CCCCN)NC(C)=O)[C@@H](C)O)[C@@H](C)O)C(C)C)[C@@H](C)O)C(=O)N[C@@H](CO)C(=O)N[C@@H](CO)C(N)=O the MIC range was 32 µg/mL (≈ 10.9 µM) (Enterococcus faecalis; ATCC 29212).
The protection of CCCCCCCCCCCCCCCC[N+](C)(C)CCCCCC[N+](C)(C)CCCCCCCCCCCCCCCC.[Br-].[Br-] is reported as 77.6 ± 8.1% (influenza A virus A/PR/8/34 (H1N1); concentration not given, pre-treatment).
O=C(O)/C=C/C(=O)O.Oc1cccc2[nH]cc(CCNC3CCCCC3)c12 — result for “head twitch count”: 1.7 ± 0.2 (C57BL/6J mice; subcutaneous, 30 mg/kg).
CCCCCCCCCCCCCCCCCC[N+](C)(C)CCCCCCCCCC[N+](C)(C)CCCCCCCCCCCCCCCCCC.[Br-].[Br-] has a protection of 65.6 ± 4.5% (influenza A virus A/PR/8/34 (H1N1); concentration not given, post-treatment).
NCCc1ccc(Oc2ccc(O)cc2)c(I)c1: “maximum body temperature change” -6 ± 0.4 °C (wild-type mice; ip, 50 mg/kg, 60 min; relative to: saline).
O=C(O)/C=C/C(=O)O.Oc1cccc2[nH]cc(CCNCc3ccccc3)c12 — result for “head twitch count”: 6.3 ± 1.1 (C57BL/6J mice; subcutaneous, 0.03 mg/kg).
CC(CCCN(CCCl)CCCl)Nc1ccnc2cc(Cl)ccc12.O=C(O)c1cc2ccccc2c(Cc2c(O)c(C(=O)O)cc3ccccc23)c1O gave an inhibition of 10.3 ± 4.1% (West Nile virus; viral replication, Rluc reporter replicon; Vero WNV replicon cells; 50 µM, 24 h).
With CC(C)(C)NCCc1c[nH]c2cccc(O)c12.CC(C)(C)NCCc1c[nH]c2cccc(O)c12.O=C(O)/C=C/C(=O)O the distance travelled was 2340 ± 359 cm (C57BL/6J mice; subcutaneous, 30 mg/kg, 30 min).
Under “hepatocyte cell death”, C[C@]12CC[C@H]3[C@@H](CC=C4CC(O)CC[C@@]43CO)[C@@H]1CCC2O (some centres unmarked) is recorded as “decreased” (TUNEL; rat, GAN diet-induced MASH, liver; dose not given; relative to: vehicle).

A few entries again:
CC(C)NCCc1c[nH]c2cccc(O)c12.O=C(O)/C=C/C(=O)O — result for “head twitch count”: 14.4 ± 1.7 (C57BL/6J mice; subcutaneous, 3 mg/kg).
CCCCCCCCCCCCCCCCCC[N+](C)(C)Cc1ccc(C[N+](C)(C)CCCCCCCCCCCCCCCCCC)cc1.[Br-].[Br-] gave a protection of 74.4 ± 2.1% (influenza A virus A/PR/8/34 (H1N1); concentration not given, pre-treatment).
